Measurements collected from several papers.
Each numbered part is a random draw from the data of one study; scales do not carry over between parts.

Series 1
Target: RNA binding protein fox-1 homolog 2, RRM domain, GST-SBP tag (RBFOX2, Homo sapiens, UniProt O43251-10, residues 100-194)
Method: RNA Bind-n-Seq
Molecule type: RNA
Matrix: in vitro
Concentration: 365 nM
Setting: natural RNA segment, single round, ends assumed
Reference: no-protein control
Direction: higher = stronger binding
Measurement: RBNS enrichment (R)
All sequences stand within: GGGAGUUCUACAGUCCGACGAUC … UGGAAUUCUCGGGUGCCAA
Construct (chain): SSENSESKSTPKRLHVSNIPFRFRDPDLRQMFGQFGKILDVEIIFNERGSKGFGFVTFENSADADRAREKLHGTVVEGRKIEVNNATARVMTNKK
AAGAAAAAUUGUUCUCUAACCAGGAUUGUAACAAAAGUGUAAAUACUGUUUCAGAGUUGAGAGUUGGUGGUGCAAAUAUGUAUAUAAUGAACUGUAUUUUUACAAUGAUC: 0.673
CCUCUCCAAGCAGUCAAGCCCUCUUGCAAAUUCAGCCACUGCUUUGAGCCCAAAACGGGAAUAUUAGUUUUAUGUCGGAGGUGUGUUCCAAGUUUGUCAAUGAGGCUAUA: 1.19
GGUUGCUAGCCUUAACUUCAGCUGGUGCAAAACAUCUGACUGUAGCCGAACUUCAGCCAUCAGAUCCUUCAAAGUGGAACUUUGGAUUGUUUUUACAGACAACAUCGAGU: 0.464
UGGGAUUACAAUGAAUGUAAGCCCAAAUUGUGGAAUUGCCAGUAACCUGGAUGGGGAAAAGCAUUUCCCAUAGCACUCCAUGUAAUAUGAGUGCUCUGUGAGAUGUUCAU: 0.274
AACUGAAUGAAAACCUGUCAUGCGGGAUUAUUUUUGAAAAGCCUCCAUUUGUAUACAUUUGCCCAAACAUAGCAACUAUUGUACAGUUUUUCAUUGUAUCAAAUACUUUU: 0.489
UUCUAAUAUAUAUAAUAUUAUGGUAAUAGCAGAAGUUUUGUUAUCUUAAUAGCGGGAGGGGGGUAUAUUUGUGCAGUUGCACAUUUGAGUAACUAUUUUCUUUCUGUUUU: 0.536
CCUUUGUUAGGAAAAAGCACAGCCUCAGAUGGAGGCAGCCUAAACUGUGUUCUUGUUUUGUUCAUGGUGUUUCUAAGCGUUUUGCUGAAGCUGCUCUCAGGCACCCCCUU: 0.837

Series 2
Target: RING finger protein unkempt homolog, zinc fingers 1-6, GST-SBP tag (UNK, Homo sapiens, UniProt Q9C0B0, residues 30-357)
Sequence of UniProt Q9C0B0 (30-357, looked up): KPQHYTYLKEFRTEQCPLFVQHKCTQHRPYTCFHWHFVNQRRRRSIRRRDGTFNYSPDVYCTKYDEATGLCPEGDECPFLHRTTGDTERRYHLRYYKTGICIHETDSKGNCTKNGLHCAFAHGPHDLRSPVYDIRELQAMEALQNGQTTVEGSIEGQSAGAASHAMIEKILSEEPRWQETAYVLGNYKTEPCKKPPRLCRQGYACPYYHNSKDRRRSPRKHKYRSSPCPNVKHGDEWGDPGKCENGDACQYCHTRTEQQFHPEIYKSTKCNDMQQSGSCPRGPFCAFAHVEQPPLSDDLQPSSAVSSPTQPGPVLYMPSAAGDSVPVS
Method: RNA Bind-n-Seq
Molecule type: RNA
Matrix: in vitro
Concentration: not given
Setting: RNA with constant flanks, human and mouse sites, ends assumed
Reference: input RNA pool
Direction: higher = stronger binding
Measurement: bound/input enrichment
All sequences stand within: GGGAGUUCUACAGUCCGACGAUC … CAACAGAGGAUUGAGCAUCA
UUCGUGCAGUUUGCUUCACAGGAAAUAGCUGAAAAGGCUCUAAAGAAACACAAGGAAAGAAUAGGGCACAGGUAUAUUGAAAUAUUUAAGAGCAGUCGAGCUGAAGUUAGAACUCAUUAU: 0.61 ratio
CUGGCCCCUGUACAGGUGUCAUUAAUCUGGUUGUAUAUGGGUUAUAAUAUGUAAUACAAAAAGCUCAUUAAGUAUGGGACUACAUGGAGAGGGAAGACAGUUUCAUUUAUAGCUACUGGG: 0.378 ratio
AGGCCUUGGUUUACCCCGAGAUCCAUCUAUAUGGAAGCAUCGACAGUGGACUGUAAUGAUUUAGGGCUUUUAAACUUCCCAGCCAGAUUGCCUGCCGACACACAGAUUCUGCUCCUACAG: 0.222 ratio
GAAGUUCUUGCUGACCGGCCACUAUUCCCACAUGUUCUCUGCCAUAACUGUGCAGUUGAAUUUAAUUUCGGUCAAAAGGAAAAGCCAUACUUUCCAAUACCUGAAGACUGUACUUUUAUC: 0.132 ratio
CUUGUUUAUCACAUUGGCCUUACUCCAGCGAAACUUCCAGAUCUAGUGGAGAACAACCCUUUAGUCGCUAUAGAAAUGCUGCUGAAACUGAUGCAGUCAAGCCAGAUCACGGAGUAUUUC: 1.43 ratio

Other studies, line by line
SEPTIN7 (Homo sapiens, UniProt Q16181)  interaction screen (SEPTIN9 (Homo sapiens, UniProt Q9UHD8); cross-linking MS; hits only): cross-linked
PhoQ, residues 284 288 289 292 302 303 ASTSDA  fold induction (PhoP, residues 12 14 15 18 19 IFFTR (Escherichia coli, UniProt P23836); Sort-seq, refers to: YFP reporter; E. coli; PhoQ-PhoP variant library, together with: 10 µM Mg2+; reference: high Mg2+ state, higher = stronger signaling): 4.73
NAT10 (Homo sapiens, UniProt Q9H0A0)  cross-linked residues (AATF (Homo sapiens, UniProt Q9NY61); cross-linking MS; cell fractions; together with: DMTMM): E883 to K58
CCT2 (Homo sapiens, UniProt P78371)  cross-linked residues (CCT7 (Homo sapiens, UniProt Q99832); cross-linking MS; cell fractions; together with: DSSO): K527 to K55

Excerpt of the above (series 1):
CCUCUCCAAGCAGUCAAGCCCUCUUGCAAAUUCAGCCACUGCUUUGAGCCCAAAACGGGAAUAUUAGUUUUAUGUCGGAGGUGUGUUCCAAGUUUGUCAAUGAGGCUAUA: 1.19
GGUUGCUAGCCUUAACUUCAGCUGGUGCAAAACAUCUGACUGUAGCCGAACUUCAGCCAUCAGAUCCUUCAAAGUGGAACUUUGGAUUGUUUUUACAGACAACAUCGAGU: 0.464
